# Measured values gathered from unrelated publications.
# A part holds a random share of what one study measured. Changes are numbered by the printed parent chain.

# Series 1
# Target: Prothrombin, mature alpha-thrombin (F2, Homo sapiens, UniProt P00734)
# Method: aptamer microarray, sandwich
# Molecule type: DNA with 2'F-ANA
# Sample: in vitro
# Concentration: 200 nM
# Setting: whole 15-mer aptamer, many near background
# Added: Cy3 exosite-II aptamer, 400 nM
# Direction: higher = stronger binding
# Strand: GGTTGGTGTGGTTGG
Modification,mean fluorescence intensity [a.u.]
2'F-ANA at 1 3 4 5 6 8 10 13 14 15,67.9
2'F-ANA at 2 3 4 6 7 11 12 13 14 15,236
2'F-ANA at 1 3 4 6 7 8 12 13,342
2'F-ANA at 1 3 6 8 9 11,277
2'F-ANA at 1 4 7 8 10 12 13 14,54.7
2'F-ANA at 2 4 5 7 8 9 11 14,46.8
2'F-ANA at 2 5 6 8 13,68

# Series 2
# Target: Interferon regulatory factor 7, full length, phosphomimetic (IRF7, Homo sapiens, UniProt Q92985, residues 1-503, S471D/S472D/S475D/S476D/S477D/S483D/S484D/S487D)
# Method: protein-binding microarray
# Molecule type: double-stranded DNA, one strand shown
# Sample: in vitro
# Concentration: 2200 nM top
# Setting: 60-bp whole probe
# Added: salmon DNA 0.4 mg/ml
# Baseline: random background probes
# Direction: higher = stronger binding
# Constant ends, left off below: GCCTAGCAC … GTCTTGATTCGCTTGACGCTGCTG
# Construct (chain): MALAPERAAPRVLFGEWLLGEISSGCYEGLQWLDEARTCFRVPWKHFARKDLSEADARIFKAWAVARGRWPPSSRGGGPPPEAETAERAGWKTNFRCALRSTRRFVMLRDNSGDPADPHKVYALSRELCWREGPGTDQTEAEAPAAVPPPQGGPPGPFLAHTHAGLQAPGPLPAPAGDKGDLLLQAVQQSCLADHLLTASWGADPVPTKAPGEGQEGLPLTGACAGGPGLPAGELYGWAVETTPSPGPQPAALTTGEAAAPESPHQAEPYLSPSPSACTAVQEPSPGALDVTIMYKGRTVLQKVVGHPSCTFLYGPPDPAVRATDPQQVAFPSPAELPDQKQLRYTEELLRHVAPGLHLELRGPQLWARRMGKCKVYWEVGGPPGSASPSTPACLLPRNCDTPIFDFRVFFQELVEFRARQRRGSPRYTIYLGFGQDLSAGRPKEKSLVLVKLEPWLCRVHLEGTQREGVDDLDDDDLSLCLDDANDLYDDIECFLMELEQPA
Strand,fitted relative affinity [z-score]
TTAGGACTGGGACTGGGTCAGTGCTAG,-1.12
TTAGGTTTCCTTATTCTTTAGTGCTAG,1.71
GACGATTTCAGTCTCGAGGCGTGCTAG,0.895
TTACATTTTAATTTTATTTGGTGCTAG,1.54
GACGATATCAGTTTCCAGACGTGCTAG,1.62
TTAGGACTGGACTACCGGTTAGTGCTA,-0.773
TTACGTCTCCTACTGCTTTAGTGCTAG,2.16
AAACCTCACAGTTTGTAAATGTGCTAG,0.178
GAGAAAATGATTTTTTTCATGTGCTAG,-0.0599

# Series 3
# Target: CCNA2, cyclin fold, Cln2 fusion (human)
# Method: yeast growth competition, sequencing
# Sample: yeast
# Setting: strong parent motif
# Baseline: not given
# Direction: higher = stronger binding
# Starting sequence: PKMYT1 docking peptide (human); SFEPRNLLSLFED; partner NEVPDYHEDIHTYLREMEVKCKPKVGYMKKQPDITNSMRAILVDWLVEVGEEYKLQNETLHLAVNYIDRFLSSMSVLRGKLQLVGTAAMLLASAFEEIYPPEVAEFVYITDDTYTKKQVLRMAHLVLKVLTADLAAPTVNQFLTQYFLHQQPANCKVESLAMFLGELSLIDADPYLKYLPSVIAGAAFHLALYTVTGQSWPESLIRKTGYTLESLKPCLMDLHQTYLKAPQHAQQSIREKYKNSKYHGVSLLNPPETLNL
Substitution,normalised enrichment score
E3K,4.78
S9G,1.66
R5A,0.316
S1W,3.64
R5A L7A,-0.88
N6W,-0.562
P4K,0.187

# Mixed results
Molecule,target,assay,test system,setting,how to read,quantity,result
"PhoQ, residues 284 288 289 292 302 303 NLSRDF","PhoP, residues 12 14 15 18 19 QYFSL (Escherichia coli, UniProt P23836)","Sort-seq, item: YFP reporter",E. coli,"PhoQ-PhoP variant library, added: 10 µM Mg2+","baseline: high Mg2+ state, higher = stronger signaling",fold induction,3.41

# A few entries again (series 3):
Substitution,normalised enrichment score
P4K,0.187
R5A,0.316
